Measurements collected from several papers.
Protocols differ between the studies behind these lines.

SMILES | tested on | assay | test system | setting | how to read | measurement | value
N[C@@H]1c2ccccc2OC12CCN(c1cnc3c(N4CCCc5ncccc54)n[nH]c3n1)CC2 |  |  | advanced solid tumour patients | oral, 75 mg once daily |  | patients with serious TEAE | 57.1%
Cc1cc(OCCOCCC(F)(F)P(=O)(O)O)ccc1CCc1cnc2c(N)nc3cc(CCC(=O)O)ccc3c2c1 |  | item: pruritus | adults with advanced solid tumours | dose not given, all groups pooled, all grades |  | patients with non-serious AE | 15.6%
Cc1ccc(C)c(Nc2cc(C(=O)NCCCN(C)C3CCCCC3)c3ccccc3n2)c1 | Vero-E6 | CellTiter-Glo ATP |  | concentration not given, 72 h, second round 5-point | reference: DMSO 0%, hyamine -100%, more negative, more toxic | cytotoxicity efficacy | -29.8%
C=CCNc1c(O)cc2c(O)c1C[C@@H](C)C[C@H](OC)[C@H](O)[C@@H](C)/C=C(\C)[C@H](OC(N)=O)[C@@H](OC)/C=C\C=C(/C)C(=O)N2 |  |  | unresectable or metastatic sarcoma | intravenous, 225 mg/m^2, grade 3-4 lab change |  | patients with lipase increase | 0%
CCN(CCO)CCCC(C)Nc1ccnc2cc(Cl)ccc12 (stereo not shown) |  | item: Anorexia grade 1 | newly diagnosed glioblastoma patients | oral, 400 mg/dose, with radiotherapy and temozolomide |  | patients with adverse event | 29%
O=C1Nc2cc3[nH]nc(-c4ccncc4)c3cc2CN1Cc1ccccc1 |  | CTCAE v4.03 | advanced solid tumour patients | intravenous, 1.8 mg/kg, schedules 1/2 |  | patients with dizziness | 0%
C[C@@H]1OC(=O)NN=C1c1ccc(-c2ccc(F)cc2)c(C(F)(F)F)c1 |  |  | patients, phase I trial | oral, dose not given, all arms, any grade TEAE |  | patients with AST increased | 20%
Cc1cccc(N2CCN(C(=O)C3CCN(Cc4nc(-c5ccc(Cl)cc5)oc4C)CC3)CC2)c1C | Vero-E6 | CellTiter-Glo ATP |  | concentration not given, 72 h, first round 5-point | reference: DMSO 0%, hyamine -100%, more negative, more toxic | cytotoxicity efficacy | 0%
CC(=O)c1c(C)c2cnc(Nc3ccc(C4CCN(CCS(C)(=O)=O)CC4)cn3)nc2n(C2CCCC2)c1=O |  |  | HR+/HER2- advanced breast cancer patients | oral, 50 mg, dose escalation |  | patients with serious adverse reactions | 0%
CN1CC[C@@H](c2c(O)cc(O)c3c(=O)cc(-c4ccc(C(F)(F)F)cc4Cl)oc23)[C@@H]1CO |  | item: Neutropenia | B-cell malignancies or AML | oral, 100 mg, continuous dosing |  | patients with adverse event | 0%
